{"data": "Measured values collected from several papers", "ctxB pentamer": "ctxB, pentamer (Vibrio cholerae, UniProt P01556)", "note": "Compare with care: the assays were run in different laboratories. “And” joins repeats or separate records; there may be more than shown. Numbers after ± are the reported error."}
{"SMILES": "O=[N+]([O-])c1cccc(O[C@H]2O[C@H](CO)[C@H](O)[C@H](O)[C@H]2O)c1", "target": "ctxB (Vibrio cholerae, UniProt P01556)", "test": "binding", "measurement": "Hill slope", "value": -1.02}
{"SMILES": "COc1ccc(/C=N/NC(=O)C(C)(C)Oc2ccc(Cl)cc2)c(C(=O)O)c1OC", "target": "uncharacterized protein (Candidatus Liberibacter solanacearum, UniProt A0A094YYW1)", "test": "inhibitor", "conditions": "concentration not given, outcome inhibited", "how to read": "relative to: mock", "measurement": "phosphatase activity", "value": "inhibited"}
{"SMILES": "CC[C@H](C)[C@@H]1NC(=O)[C@H](CCCNC(=N)N)NC(=O)[C@H](CO)NC(=O)[C@H](CCC(=O)O)NC(=O)[C@H](CC(=O)O)NC(=O)CNC(=O)CNC(=O)[C@H]([C@@H](C)O)NC(=O)[C@H](Cc2ccccc2)NC(=O)[C@H](CO)NC(=O)[C@H]([C@@H](C)O)NC(=O)[C@H](C)NC(=O)[C@@H]2CSSC[C@@H](C(=O)N[C@@H](Cc3ccc(O)cc3)C(=O)N[C@@H](Cc3ccccc3)C(=O)N[C@H](C(=O)N[C@H](C(=O)NCC(=O)O)[C@@H](C)O)[C@@H](C)O)NC(=O)[C@H]([C@@H](C)O)NC(=O)[C@H](CSSC[C@H](NC(=O)[C@H](CCC(=O)O)NC(=O)[C@H](CO)NC(=O)[C@H](CCCCN)NC(=O)[C@H](Cc3ccc(O)cc3)NC(=O)[C@@H]3CCCN3C(=O)[C@H](Cc3ccccc3)NC(=O)[C@H](CCCCN)NC(=O)[C@H](CCCNC(=N)N)NC(=O)[C@H](CCCCN)NC(=O)[C@H](CCCCN)NC(=O)[C@H](Cc3ccc(O)cc3)NC(=O)[C@@H]3CCCN3C(=O)[C@@H](NC(=O)[C@H](CC(=O)O)NC(=O)[C@H](CCCCN)NC(=O)[C@H](CCCCN)NC(=O)[C@@H](NC(=O)[C@@H](NC(=O)[C@@H](N)CCC(=O)O)C(C)C)[C@@H](C)CC)[C@@H](C)O)C(=O)N[C@@H](CC(C)C)C(=O)N[C@@H](CCCCN)C(=O)N[C@@H](C)C(=O)N2)NC(=O)[C@H](CCCCN)NC(=O)[C@H](Cc2ccccc2)NC(=O)[C@H](Cc2ccccc2)NC(=O)CNC(=O)[C@@H]2CCCN2C(=O)[C@H](CCCCN)NC(=O)CNC(=O)[C@H](CCC(=O)O)NC(=O)[C@H](CCC(N)=O)NC1=O", "target": "KCNQ4 (Homo sapiens, UniProt P56696, D266G)", "test": "potassium current, whole-cell patch clamp", "system": "HEK-293T", "measurement": "Hill slope", "value": "2.11 ± 0.09"}
{"SMILES": "CC(=O)N[C@@H](Cc1cn(CCCO[C@@H]2O[C@H](CO)[C@H](O)[C@H](O)[C@H]2O)nn1)C(N)=O", "target": "ctxB pentamer", "conditions": "concentration not given", "how to read": "relative to: galactose", "measurement": "inhibition potency", "value": "8 fold"}
{"SMILES": "CC[C@H](C)[C@H](NC(=O)[C@H](Cc1ccccc1)NC(=O)[C@@H](N)C(C)C)C(=O)N[C@@H](CC(N)=O)C(=O)N[C@H](C(=O)N[C@@H](CCCCN)C(=O)N[C@H]1CSSC[C@@H]2NC(=O)[C@H](CCCCN)NC(=O)CNC(=O)[C@H](C)NC(=O)[C@H](C)NC(=O)[C@H](CCCCN)NC(=O)CNC(=O)[C@H](C(C)C)NC(=O)[C@H](C)NC(=O)[C@H](C)NC(=O)[C@H](CCCCN)NC(=O)[C@@H]3CSSC[C@@H](C(=O)N[C@@H](Cc4ccc(O)cc4)C(=O)N4CCC[C@H]4C(=O)O)NC(=O)[C@H](CCCCN)NC(=O)[C@H](CSSC[C@H](NC(=O)[C@H](CCC(=O)O)NC(=O)[C@H](CCCCN)NC(=O)[C@H](CO)NC(=O)CNC(=O)[C@H](CCCNC(=N)N)NC1=O)C(=O)N[C@@H](CC(C)C)C(=O)N1CCC[C@H]1C(=O)N[C@@H](C)C(=O)N3)NC(=O)[C@H](CCCCN)NC(=O)CNC(=O)[C@H](CC(N)=O)NC(=O)[C@H](CCSC)NC2=O)C(C)C", "target": "Sh (Drosophila melanogaster, UniProt P08510)", "test": "toxin block destabilisation, blocker", "conditions": "360 nM, with: external K+", "measurement": "Hill coefficient", "value": 1.4}
{"SMILES": "O=C(C=Cc1ccc(O)c(O)c1)OC1CC(O)(C(=O)O)CC(OC(=O)C=Cc2ccc(O)c(O)c2)C1O (stereo not shown)", "target": "Spike glycoprotein (Severe acute respiratory syndrome coronavirus 2, UniProt P0DTC2)", "test": "binding, BLI", "measurement": "koff", "value": "0.00371 s⁻¹"}
{"SMILES": "CC(=O)NCC(=O)N[C@@H](C)C(=O)N[C@@H](CCC(=O)O)C(=O)N[C@@H](C)C(=O)N[C@@H](CCC(=O)O)C(=O)N1CCC[C@H]1C(=O)N[C@@H](CCC(=O)O)C(=O)NCC(=O)N[C@@H](C)C(=O)N[C@@H](CCC(=O)O)C(=O)N[C@@H](C)C(=O)N[C@@H](CCC(=O)O)C(=O)N1CCC[C@H]1C(=O)N[C@@H](CCC(=O)O)C(=O)NCC(=O)N[C@@H](C)C(=O)N[C@@H](CCC(=O)O)C(=O)N[C@@H](C)C(=O)N[C@@H](CCC(=O)O)C(=O)N1CCC[C@H]1C(=O)N[C@@H](CCC(=O)O)C(=O)NCC(=O)N[C@@H](C)C(=O)N[C@@H](CCC(=O)O)C(=O)N[C@@H](C)C(=O)N[C@@H](CCC(=O)O)C(=O)N1CCC[C@H]1C(=O)N[C@@H](CCC(=O)O)C(=O)NCC(=O)N[C@@H](C)C(=O)N[C@@H](CCC(=O)O)C(=O)N[C@@H](C)C(=O)N[C@@H](CCC(=O)O)C(=O)N1CCC[C@H]1C(=O)N[C@@H](Cc1cn([C@@H]2O[C@H](CO)[C@H](O)[C@H](O)[C@H]2O)nn1)C(=O)NCC(=O)NCC(=O)NCC(=O)NCC(N)=O", "target": "ctxB pentamer", "conditions": "concentration not given", "how to read": "relative to: galactose", "measurement": "inhibition potency", "value": "100 fold"}
{"SMILES": "C[C@H](NCc1ccc(-c2ccc(C(F)(F)F)cc2)cc1)C(N)=O", "target": "CHRNA1/CHRNG/CHRND (Homo sapiens, UniProt P02708+P07510+Q07001)", "test": "binding", "system": "biochemical", "conditions": "1 µM", "measurement": "inhibition", "value": "-5%"}
{"SMILES": "CC(C)C[C@H](NC(=O)OCc1ccccc1)C(=O)N[C@@H](C[C@@H]1CCNC1=O)C(O)S(=O)(=O)O (stereo partly shown)", "target": "Replicase polyprotein 1ab, main protease (rep, Middle East respiratory syndrome-related coronavirus, UniProt K9N7C7)", "test": "thermal stability", "measurement": "ΔTm", "value": "17.2 °C"}
{"SMILES": "Cc1cc(C)n(-c2nc(-c3ccccc3)cc(=O)n2CC(=O)Nc2cccc([N+](=O)[O-])c2)n1", "target": "Spike glycoprotein, HR1/HR2 domains (Severe acute respiratory syndrome coronavirus 2, UniProt P0DTC2)", "test": "HR1-HR2 interaction, yeast two-hybrid", "system": "AH109", "conditions": "48 h", "measurement": "MIC", "value": "3.12 µg/mL"}
{"SMILES": "CC(C)C[C@H](NC(=O)CNC(=O)[C@H](CCCNC(=N)N)NC(=O)[C@H](CCCNC(=N)N)NC(=O)[C@H](C)NC(=O)[C@H](CCC(=O)O)NC(=O)c1ccc(N=Nc2ccc(N(C)C)cc2)cc1)C(=O)N[C@@H](CCC(=O)NCCNc1cccc2c(S(=O)(=O)O)cccc12)C(=O)N[C@@H](CCCNC(=N)N)C(=O)O", "target": "hip1 (Mycobacterium tuberculosis, UniProt P9WHR3)", "test": "substrate", "measurement": "Km", "value": "~20 µM and 18 µM"}
{"SMILES": "O=C(O[C@H]1Cc2c(O)cc(O)cc2OC1c1cc(O)c(O)c2c(=O)c(O)cc(C3Oc4cc(O)cc(O)c4C[C@H]3O)cc12)c1cc(O)c(O)c(O)c1 (stereo partly shown)", "target": "Replicase polyprotein 1a, main protease (Severe acute respiratory syndrome-related coronavirus, UniProt P0C6U8)", "test": "3CL protease activity", "conditions": "10 µM", "measurement": "activity", "value": "active"}
{"SMILES": "CC(C)C[C@@H]1NC(=O)[C@H](CCCNC(=N)N)NC(=O)[C@@H]2CCCN2C(=O)[C@@H]2CSSC[C@H](NC(=O)CNC(=O)[C@@H]3CCCN3C(=O)[C@H](CCCCN)NC(=O)[C@H](CC(=O)O)NC(=O)[C@@H](NC(=O)CN)C(C)C)C(=O)N[C@@H](CCCNC(=N)N)C(=O)N[C@@H](Cc3ccc(O)cc3)C(=O)N[C@@H](CC(C)C)C(=O)N[C@@H](Cc3ccccc3)C(=O)NCC(=O)NCC(=O)N[C@H]3CSSC[C@H](NC(=O)CNC1=O)C(=O)N[C@@H](CCCCN)C(=O)NCC(=O)N[C@@H](CCCCN)C(=O)NCC(=O)N[C@@H](Cc1c[nH]cn1)C(=O)N[C@@H](CC(=O)O)C(=O)N[C@@H](Cc1ccc(O)cc1)C(=O)N[C@H](C(=O)N[C@@H](C)C(=O)N[C@@H](Cc1c[nH]c4ccccc14)C(=O)N[C@@H](CC(=O)O)C(=O)NCC(=O)N[C@H](C(=O)N[C@@H](Cc1ccccc1)C(=O)N[C@@H](CO)C(=O)N[C@@H](CC(=O)O)C(=O)O)[C@@H](C)O)CSSC[C@H](NC(=O)[C@H](CC(=O)O)NC(=O)[C@H](CC(=O)O)NC(=O)[C@H](CC(=O)O)NC(=O)[C@H](CO)NC(=O)[C@H](CCCCN)NC3=O)C(=O)N2", "target": "SCN9A (Homo sapiens, UniProt Q15858)", "test": "manual patch clamp", "system": "HEK293", "conditions": "1 µM", "measurement": "activation V0.5", "value": "-10.6 ± 1.7 mV"}
{"note": "Excerpt of the above:"}
{"SMILES": "O=[N+]([O-])c1cccc(O[C@H]2O[C@H](CO)[C@H](O)[C@H](O)[C@H]2O)c1", "target": "ctxB (Vibrio cholerae, UniProt P01556)", "test": "binding", "measurement": "Hill slope", "value": -1.02}
{"SMILES": "COc1ccc(/C=N/NC(=O)C(C)(C)Oc2ccc(Cl)cc2)c(C(=O)O)c1OC", "target": "uncharacterized protein (Candidatus Liberibacter solanacearum, UniProt A0A094YYW1)", "test": "inhibitor", "conditions": "concentration not given, outcome inhibited", "how to read": "relative to: mock", "measurement": "phosphatase activity", "value": "inhibited"}
